Experimental data from different studies.
Every numbered part comes from another study and shows a few of its results, in no order. Several values in a cell are separate wells, animals, samples, runs or records.
Chain of UniProt Q99755 (whole entry, looked up): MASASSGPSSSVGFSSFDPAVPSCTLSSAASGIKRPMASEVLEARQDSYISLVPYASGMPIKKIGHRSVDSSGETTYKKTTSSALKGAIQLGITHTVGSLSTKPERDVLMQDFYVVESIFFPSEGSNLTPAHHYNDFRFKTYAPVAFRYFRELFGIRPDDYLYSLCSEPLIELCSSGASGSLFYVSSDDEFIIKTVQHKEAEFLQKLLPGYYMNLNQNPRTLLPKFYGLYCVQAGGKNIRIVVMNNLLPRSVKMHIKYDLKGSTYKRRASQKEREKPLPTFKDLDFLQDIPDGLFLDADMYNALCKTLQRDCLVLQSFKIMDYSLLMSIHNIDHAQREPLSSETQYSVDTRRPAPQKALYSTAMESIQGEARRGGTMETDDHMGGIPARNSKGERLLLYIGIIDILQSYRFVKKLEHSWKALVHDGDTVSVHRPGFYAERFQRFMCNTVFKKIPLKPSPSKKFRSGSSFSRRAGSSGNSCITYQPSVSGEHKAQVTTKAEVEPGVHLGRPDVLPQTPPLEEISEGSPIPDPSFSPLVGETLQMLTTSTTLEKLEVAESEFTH
Chain of UniProt P42336 (whole entry, unmodified, looked up): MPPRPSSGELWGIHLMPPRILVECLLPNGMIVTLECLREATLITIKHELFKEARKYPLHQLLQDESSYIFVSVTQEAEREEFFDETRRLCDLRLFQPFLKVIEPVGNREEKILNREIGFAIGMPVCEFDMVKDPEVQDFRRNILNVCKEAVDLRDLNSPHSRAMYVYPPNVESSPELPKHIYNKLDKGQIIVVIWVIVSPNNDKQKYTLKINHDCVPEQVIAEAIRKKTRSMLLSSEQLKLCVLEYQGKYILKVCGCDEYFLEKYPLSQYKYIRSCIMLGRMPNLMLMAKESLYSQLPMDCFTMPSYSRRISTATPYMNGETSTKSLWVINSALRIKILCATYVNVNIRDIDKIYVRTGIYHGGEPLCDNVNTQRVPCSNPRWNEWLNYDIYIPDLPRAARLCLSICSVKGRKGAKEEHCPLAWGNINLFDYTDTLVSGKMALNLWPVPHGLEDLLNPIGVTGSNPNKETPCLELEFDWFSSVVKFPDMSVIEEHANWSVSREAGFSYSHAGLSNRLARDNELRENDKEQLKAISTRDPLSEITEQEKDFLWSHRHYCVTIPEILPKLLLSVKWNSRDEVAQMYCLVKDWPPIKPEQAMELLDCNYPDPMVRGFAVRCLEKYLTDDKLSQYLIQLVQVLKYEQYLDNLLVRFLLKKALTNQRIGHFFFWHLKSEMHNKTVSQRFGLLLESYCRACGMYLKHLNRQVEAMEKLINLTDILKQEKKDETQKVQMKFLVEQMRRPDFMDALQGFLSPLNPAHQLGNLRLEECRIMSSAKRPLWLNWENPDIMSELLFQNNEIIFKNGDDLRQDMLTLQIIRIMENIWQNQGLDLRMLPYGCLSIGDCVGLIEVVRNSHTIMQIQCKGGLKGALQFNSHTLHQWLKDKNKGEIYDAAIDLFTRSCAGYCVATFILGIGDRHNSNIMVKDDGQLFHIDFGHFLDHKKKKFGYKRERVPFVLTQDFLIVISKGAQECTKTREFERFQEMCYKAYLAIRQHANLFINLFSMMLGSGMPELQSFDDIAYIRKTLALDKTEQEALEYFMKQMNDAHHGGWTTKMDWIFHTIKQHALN
Chain of UniProt Q9Y6E0 (whole entry, looked up): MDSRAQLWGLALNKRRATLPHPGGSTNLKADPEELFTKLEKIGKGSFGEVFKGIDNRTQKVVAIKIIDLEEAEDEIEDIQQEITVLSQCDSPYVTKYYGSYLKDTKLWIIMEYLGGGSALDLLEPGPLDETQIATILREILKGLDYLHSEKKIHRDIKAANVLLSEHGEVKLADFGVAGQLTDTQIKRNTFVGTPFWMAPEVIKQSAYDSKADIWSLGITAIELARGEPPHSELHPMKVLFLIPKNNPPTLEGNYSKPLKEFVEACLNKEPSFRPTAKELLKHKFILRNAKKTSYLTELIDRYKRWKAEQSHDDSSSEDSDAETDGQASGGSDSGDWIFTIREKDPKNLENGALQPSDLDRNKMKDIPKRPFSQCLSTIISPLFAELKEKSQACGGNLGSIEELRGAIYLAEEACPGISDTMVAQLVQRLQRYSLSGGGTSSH
Chain of UniProt Q9HCP0 (whole entry, looked up): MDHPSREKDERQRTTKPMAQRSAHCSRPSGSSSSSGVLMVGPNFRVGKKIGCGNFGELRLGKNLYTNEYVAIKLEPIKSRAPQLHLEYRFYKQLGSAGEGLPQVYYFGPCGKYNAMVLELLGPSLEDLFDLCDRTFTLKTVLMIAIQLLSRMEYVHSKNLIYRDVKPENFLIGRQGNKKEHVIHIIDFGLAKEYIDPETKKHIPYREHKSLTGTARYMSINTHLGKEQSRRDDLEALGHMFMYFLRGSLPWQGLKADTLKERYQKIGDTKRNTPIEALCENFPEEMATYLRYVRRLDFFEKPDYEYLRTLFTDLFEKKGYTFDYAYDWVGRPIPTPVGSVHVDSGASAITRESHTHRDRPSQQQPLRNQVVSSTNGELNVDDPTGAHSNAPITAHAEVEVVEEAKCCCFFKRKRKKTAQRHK
Chain of UniProt P36894 (whole entry, looked up): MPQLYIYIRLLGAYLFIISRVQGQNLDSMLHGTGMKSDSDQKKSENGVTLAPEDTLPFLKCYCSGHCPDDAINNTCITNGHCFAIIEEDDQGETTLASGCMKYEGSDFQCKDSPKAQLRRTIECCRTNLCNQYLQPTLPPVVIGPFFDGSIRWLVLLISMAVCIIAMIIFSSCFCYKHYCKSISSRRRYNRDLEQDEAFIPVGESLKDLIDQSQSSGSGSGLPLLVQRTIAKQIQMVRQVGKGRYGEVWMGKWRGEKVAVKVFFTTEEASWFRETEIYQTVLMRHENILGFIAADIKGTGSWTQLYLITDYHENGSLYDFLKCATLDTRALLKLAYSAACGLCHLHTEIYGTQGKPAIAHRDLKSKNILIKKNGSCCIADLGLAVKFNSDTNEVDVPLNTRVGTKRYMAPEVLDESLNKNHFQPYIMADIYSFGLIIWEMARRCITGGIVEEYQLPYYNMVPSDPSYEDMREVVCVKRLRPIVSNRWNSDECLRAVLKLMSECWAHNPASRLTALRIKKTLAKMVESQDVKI
Chain of UniProt O15197 (whole entry, looked up): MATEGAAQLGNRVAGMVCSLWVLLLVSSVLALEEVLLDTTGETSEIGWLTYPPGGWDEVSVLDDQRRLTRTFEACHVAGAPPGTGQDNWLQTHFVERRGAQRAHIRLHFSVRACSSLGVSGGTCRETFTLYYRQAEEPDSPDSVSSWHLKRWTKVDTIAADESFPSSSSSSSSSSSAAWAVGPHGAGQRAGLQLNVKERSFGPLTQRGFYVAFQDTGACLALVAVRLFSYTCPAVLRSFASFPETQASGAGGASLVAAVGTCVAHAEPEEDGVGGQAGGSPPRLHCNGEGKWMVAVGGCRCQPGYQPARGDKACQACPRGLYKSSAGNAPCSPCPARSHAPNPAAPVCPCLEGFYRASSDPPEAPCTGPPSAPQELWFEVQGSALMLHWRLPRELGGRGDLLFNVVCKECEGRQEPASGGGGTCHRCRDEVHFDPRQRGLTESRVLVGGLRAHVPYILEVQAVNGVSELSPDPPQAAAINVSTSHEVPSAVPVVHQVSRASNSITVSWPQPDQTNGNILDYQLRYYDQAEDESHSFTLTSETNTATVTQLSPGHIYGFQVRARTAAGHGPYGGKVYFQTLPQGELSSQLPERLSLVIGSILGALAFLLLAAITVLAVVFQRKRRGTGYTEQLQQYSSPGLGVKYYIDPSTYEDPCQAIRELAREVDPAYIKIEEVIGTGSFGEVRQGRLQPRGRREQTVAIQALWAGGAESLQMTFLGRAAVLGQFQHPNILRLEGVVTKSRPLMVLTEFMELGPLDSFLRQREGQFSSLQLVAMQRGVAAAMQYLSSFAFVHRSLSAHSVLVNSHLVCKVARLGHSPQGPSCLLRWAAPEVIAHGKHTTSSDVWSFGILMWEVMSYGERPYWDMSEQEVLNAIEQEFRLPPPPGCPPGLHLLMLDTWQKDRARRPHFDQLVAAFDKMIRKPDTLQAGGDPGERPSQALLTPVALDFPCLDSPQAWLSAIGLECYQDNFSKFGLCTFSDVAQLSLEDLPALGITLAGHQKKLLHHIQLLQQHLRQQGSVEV
Chain of UniProt P07332 (whole entry, looked up): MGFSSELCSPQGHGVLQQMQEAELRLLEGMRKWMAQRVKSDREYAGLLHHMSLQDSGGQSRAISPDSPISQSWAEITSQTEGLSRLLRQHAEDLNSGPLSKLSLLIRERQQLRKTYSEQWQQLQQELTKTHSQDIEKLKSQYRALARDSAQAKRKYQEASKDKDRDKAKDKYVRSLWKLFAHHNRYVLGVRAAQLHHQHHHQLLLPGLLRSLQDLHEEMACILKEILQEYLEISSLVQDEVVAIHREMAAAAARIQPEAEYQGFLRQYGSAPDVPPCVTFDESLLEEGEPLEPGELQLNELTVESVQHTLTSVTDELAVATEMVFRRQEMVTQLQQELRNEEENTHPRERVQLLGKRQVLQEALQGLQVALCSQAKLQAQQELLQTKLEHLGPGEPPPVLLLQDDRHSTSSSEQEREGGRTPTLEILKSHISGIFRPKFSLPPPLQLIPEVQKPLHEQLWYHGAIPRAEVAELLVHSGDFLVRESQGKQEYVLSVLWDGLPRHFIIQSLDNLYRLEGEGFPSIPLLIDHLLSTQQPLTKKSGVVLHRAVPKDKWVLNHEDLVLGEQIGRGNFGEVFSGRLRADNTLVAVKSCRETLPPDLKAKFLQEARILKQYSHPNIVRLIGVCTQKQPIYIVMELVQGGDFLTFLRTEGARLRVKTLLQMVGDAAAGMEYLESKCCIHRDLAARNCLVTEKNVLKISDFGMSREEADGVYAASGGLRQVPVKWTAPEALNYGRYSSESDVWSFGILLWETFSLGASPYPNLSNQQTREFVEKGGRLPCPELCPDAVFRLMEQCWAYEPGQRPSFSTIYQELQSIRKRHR

Sample 1 — method: phase 2a clinical trial
SMILES: CC(C)n1cnc(-c2ccc(F)cc2)c1-c1ncc(C(=O)Nc2ccc(N3CCN(C)CC3)cc2)[nH]1
Species: patients with idiopathic pulmonary fibrosis
refers to	dose	setting	patients with treatment-emergent adverse events
left bundle branch block	30 mg once daily	Grade 3	0%
benign prostatic hyperplasia	dose not given	Grade 2, maximum intensity, all drug arms total	0%
left bundle branch block	60 mg once daily	Grade 3	0%
electrocardiogram T wave abnormal	dose not given	Grade 3, all drug arms total	0%
first degree atrioventricular block	30 mg once daily	Grade 4	0%
protein urine present	dose not given	Grade 2, all drug arms total	0%
electrocardiogram high voltage	30 mg once daily	Grade 2	0%

Sample 2 — species: human; sample: microsomes or S9; concentration: 2 µM; time: 0.5 h
Compound	remaining compound
Cc1nc2c(cc1Br)nc1n2C(C)CC1 (centres unmarked)	76.6%
CCOc1cc(=O)n2c(c1C(=O)NC1CCN(Cc3ccccc3)CC1)CCCCC2	> 99%
O=C(NC1CCS(=O)(=O)C1)c1ccc(Br)cc1 (centres unmarked)	> 99%
COc1ccc(-c2nc(-c3ccc(OC)cc3)c(-c3ccc(OC)cc3)s2)cc1	86.1%
CN(C)C(CN1C(O)=c2ccccc2=NC12C(=O)Nc1ccccc12)c1ccccc1 (centres unmarked)	4.54%
Oc1ccc(-c2nccn2Cc2csc(-c3ncccn3)n2)cc1	92.3%

Sample 3 — cell line: mouse MPNST tumor cells; method: high-content nuclear imaging; refers to: cell number; concentration: 10 µM; time: 12 h; setting: mean of 2 replicates; relative to: plate mean; direction: higher = more cells
SMILES	nuclei count
O=C(O)CCc1ccc(NCc2cccc(Oc3ccccc3)c2)cc1	0.111 z-score
O=P(O)(O)C(O)(Cc1cccnc1)P(=O)(O)O	1.09 z-score
CC(C)(N)C(=O)N[C@H](COCc1ccccc1)C(=O)N1CCC2(CC1)CN(S(C)(=O)=O)c1ccccc12	0.706 z-score
N=C(N)c1ccc(OCCCCCOc2ccc(C(=N)N)cc2)cc1	-0.963 z-score and -2.01 z-score
CCN(CC)CCNC(=O)c1cc(Br)c(N)cc1OC	0.277 z-score
CC(C)CCn1c(CN2CCN(C(=O)C3CC3)CC2)nc2c1c(=O)n(C)c(=O)n2C	0.689 z-score
CCCN1CCCC[C@H]1C(=O)Nc1c(C)cccc1C	1.55 z-score
CC(N/C(=N\C#N)Nc1ccncc1)C(C)(C)C (centres unmarked)	5.17 z-score and 4.05 z-score

Sample 4 — method: competition with immobilised ligand; concentration: 1 µM
SMILES: Cc1cc(-n2nc(Cc3cc(F)cc(C(F)(F)F)c3)nc2C)ccc1C(N)=O
target	read-out	remaining binding [%]
Receptor-type tyrosine-protein kinase FLT3 (FLT3, Homo sapiens, UniProt P36888, N841I)	cell-free assay	99
Phosphatidylinositol 4,5-bisphosphate 3-kinase catalytic subunit alpha isoform (PIK3CA, Homo sapiens, UniProt P42336, E545K)	cell-free assay	71
cAMP-dependent protein kinase catalytic subunit beta (PRKACB, Homo sapiens, UniProt P22694)	cell-free assay	100
Receptor-type tyrosine-protein kinase FLT3 (FLT3, Homo sapiens, UniProt P36888, R834Q)	cell-free assay	77
Tyrosine-protein kinase Mer (MERTK, Homo sapiens, UniProt Q12866)	cell-free assay	100
Serine/threonine-protein kinase PRP4 homolog (PRPF4B, Homo sapiens, UniProt Q13523)	cell-free assay	54
Tyrosine-protein kinase Tec (TEC, Homo sapiens, UniProt P42680)	binding	100
Serine/threonine-protein kinase 24 (STK24, Homo sapiens, UniProt Q9Y6E0)	cell-free assay	100
Mitotic checkpoint serine/threonine-protein kinase BUB1 (BUB1, Homo sapiens, UniProt O43683)	cell-free assay	100
Phosphatidylinositol 4-phosphate 5-kinase type-1 alpha (PIP5K1A, Homo sapiens, UniProt Q99755)	cell-free assay	100
Casein kinase I isoform gamma-1 (CSNK1G1, Homo sapiens, UniProt Q9HCP0)	cell-free assay	100
Tyrosine-protein kinase Fes/Fps (FES, Homo sapiens, UniProt P07332)	cell-free assay	100
Serine/threonine-protein kinase B-raf (BRAF, Homo sapiens, UniProt P15056, V600E)	cell-free assay	100
Tyrosine-protein kinase ABL1, non-phosphorylated (ABL1, Homo sapiens, UniProt P00519, T315I)	cell-free assay	100
Bone morphogenetic protein receptor type-1A (BMPR1A, Homo sapiens, UniProt P36894)	binding	85
Ephrin type-B receptor 6 (EPHB6, Homo sapiens, UniProt O15197)	cell-free assay	100
Protein-tyrosine kinase 2-beta (PTK2B, Homo sapiens, UniProt Q14289)	cell-free assay	100

For quick reference, copied from above (sample 1):
refers to	dose	setting	patients with treatment-emergent adverse events
electrocardiogram T wave abnormal	dose not given	Grade 3, all drug arms total	0%
first degree atrioventricular block	30 mg once daily	Grade 4	0%
